Published values collected from several papers.
Compare with care: the assays were run in different laboratories. ± gives the spread as reported.
KLRK1 with ULBP6: NKG2-D type II integral membrane protein, with ULBP6 (KLRK1, Homo sapiens, UniProt P26718)
UniProt P26718, sequence (whole entry, looked up): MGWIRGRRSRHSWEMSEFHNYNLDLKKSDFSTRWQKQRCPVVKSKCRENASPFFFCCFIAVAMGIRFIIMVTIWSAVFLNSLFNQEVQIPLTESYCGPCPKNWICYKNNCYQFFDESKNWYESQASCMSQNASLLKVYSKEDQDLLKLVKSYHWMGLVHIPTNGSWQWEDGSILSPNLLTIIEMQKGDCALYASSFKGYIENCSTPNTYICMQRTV
UniProt P27487, sequence (whole entry, looked up): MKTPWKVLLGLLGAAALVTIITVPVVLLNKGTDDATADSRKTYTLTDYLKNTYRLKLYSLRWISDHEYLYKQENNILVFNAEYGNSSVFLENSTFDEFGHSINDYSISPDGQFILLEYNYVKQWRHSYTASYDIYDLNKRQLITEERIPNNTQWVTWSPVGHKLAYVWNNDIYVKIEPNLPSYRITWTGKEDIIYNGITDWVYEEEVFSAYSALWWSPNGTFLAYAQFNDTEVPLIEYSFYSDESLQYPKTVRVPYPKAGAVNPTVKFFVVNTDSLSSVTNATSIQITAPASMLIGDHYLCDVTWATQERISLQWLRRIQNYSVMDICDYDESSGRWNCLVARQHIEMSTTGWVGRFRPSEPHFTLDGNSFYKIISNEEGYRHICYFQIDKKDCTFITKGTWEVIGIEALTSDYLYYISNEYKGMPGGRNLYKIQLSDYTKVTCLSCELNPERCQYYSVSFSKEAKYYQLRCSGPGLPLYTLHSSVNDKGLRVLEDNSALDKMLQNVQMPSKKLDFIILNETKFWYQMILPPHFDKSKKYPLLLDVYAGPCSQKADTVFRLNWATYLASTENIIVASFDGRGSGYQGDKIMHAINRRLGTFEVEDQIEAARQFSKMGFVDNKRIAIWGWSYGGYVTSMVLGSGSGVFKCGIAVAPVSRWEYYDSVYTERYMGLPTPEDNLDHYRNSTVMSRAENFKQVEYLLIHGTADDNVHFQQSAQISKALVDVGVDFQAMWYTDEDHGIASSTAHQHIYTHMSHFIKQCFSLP
UniProt Q13164, sequence (whole entry, looked up): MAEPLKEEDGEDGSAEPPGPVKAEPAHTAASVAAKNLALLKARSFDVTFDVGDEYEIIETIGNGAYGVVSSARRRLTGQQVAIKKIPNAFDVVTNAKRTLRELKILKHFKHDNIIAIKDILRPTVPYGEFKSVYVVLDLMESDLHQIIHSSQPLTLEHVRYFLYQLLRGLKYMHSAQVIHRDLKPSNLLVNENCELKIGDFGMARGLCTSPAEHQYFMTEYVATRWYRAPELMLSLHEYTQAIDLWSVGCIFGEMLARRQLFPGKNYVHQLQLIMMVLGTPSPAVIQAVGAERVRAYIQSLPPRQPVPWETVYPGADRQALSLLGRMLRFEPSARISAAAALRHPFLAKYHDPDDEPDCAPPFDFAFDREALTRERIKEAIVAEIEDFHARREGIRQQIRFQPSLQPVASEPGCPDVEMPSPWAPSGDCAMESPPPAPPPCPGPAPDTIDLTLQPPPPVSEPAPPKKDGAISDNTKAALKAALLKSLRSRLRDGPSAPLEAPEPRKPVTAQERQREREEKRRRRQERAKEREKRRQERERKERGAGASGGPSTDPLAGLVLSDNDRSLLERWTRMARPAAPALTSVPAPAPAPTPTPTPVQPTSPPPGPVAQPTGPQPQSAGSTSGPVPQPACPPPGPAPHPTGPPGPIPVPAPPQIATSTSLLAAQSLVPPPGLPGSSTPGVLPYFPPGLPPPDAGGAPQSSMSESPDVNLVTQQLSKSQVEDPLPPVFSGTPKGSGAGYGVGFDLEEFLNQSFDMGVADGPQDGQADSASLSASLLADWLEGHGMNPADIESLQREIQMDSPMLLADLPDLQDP
UniProt P23141, sequence (whole entry, looked up): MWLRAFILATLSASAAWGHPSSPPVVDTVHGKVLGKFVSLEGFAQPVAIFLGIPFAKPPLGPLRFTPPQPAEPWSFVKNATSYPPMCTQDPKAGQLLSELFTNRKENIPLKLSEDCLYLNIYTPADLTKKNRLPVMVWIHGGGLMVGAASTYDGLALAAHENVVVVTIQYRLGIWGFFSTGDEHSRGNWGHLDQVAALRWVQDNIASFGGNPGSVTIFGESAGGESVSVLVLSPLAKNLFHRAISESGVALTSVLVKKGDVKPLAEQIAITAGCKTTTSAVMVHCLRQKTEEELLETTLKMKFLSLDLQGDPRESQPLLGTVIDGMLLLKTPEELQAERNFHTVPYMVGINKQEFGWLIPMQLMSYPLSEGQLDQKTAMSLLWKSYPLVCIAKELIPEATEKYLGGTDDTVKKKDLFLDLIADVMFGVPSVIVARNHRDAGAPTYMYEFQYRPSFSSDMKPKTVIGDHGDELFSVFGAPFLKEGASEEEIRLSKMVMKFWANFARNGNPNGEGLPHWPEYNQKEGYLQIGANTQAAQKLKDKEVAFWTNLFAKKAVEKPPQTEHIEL
UniProt Q9H4M9, sequence (whole entry, looked up): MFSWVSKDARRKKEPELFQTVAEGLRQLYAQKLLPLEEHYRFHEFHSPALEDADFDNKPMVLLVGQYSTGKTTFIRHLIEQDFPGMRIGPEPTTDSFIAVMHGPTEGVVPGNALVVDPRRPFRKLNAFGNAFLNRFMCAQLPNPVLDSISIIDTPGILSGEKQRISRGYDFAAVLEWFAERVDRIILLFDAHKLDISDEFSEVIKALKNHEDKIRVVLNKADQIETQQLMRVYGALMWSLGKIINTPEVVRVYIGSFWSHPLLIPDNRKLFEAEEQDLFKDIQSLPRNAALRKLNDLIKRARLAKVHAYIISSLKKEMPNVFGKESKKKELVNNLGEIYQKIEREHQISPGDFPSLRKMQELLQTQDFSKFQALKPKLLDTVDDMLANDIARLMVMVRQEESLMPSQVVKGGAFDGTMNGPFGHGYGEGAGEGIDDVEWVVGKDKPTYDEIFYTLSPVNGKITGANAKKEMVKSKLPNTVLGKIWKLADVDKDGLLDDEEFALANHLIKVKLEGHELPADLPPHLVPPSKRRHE
UniProt Q9UKF6, sequence (whole entry, looked up): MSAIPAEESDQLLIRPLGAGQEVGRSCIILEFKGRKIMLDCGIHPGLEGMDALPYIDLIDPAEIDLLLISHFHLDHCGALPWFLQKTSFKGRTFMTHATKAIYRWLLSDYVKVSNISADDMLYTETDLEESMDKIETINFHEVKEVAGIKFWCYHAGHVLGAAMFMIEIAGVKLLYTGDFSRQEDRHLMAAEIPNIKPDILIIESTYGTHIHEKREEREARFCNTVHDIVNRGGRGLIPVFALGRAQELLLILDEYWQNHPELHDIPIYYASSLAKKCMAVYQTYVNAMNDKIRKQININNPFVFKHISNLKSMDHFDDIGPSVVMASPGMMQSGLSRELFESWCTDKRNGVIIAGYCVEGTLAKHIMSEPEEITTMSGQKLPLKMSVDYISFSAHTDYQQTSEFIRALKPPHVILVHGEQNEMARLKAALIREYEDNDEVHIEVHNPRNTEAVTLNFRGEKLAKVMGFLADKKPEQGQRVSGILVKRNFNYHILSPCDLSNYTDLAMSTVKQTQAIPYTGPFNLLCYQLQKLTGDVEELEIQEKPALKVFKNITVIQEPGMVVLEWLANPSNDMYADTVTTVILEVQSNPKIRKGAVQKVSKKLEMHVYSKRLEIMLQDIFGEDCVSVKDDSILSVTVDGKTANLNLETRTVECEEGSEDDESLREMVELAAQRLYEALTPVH
UniProt P17538, sequence (whole entry, looked up): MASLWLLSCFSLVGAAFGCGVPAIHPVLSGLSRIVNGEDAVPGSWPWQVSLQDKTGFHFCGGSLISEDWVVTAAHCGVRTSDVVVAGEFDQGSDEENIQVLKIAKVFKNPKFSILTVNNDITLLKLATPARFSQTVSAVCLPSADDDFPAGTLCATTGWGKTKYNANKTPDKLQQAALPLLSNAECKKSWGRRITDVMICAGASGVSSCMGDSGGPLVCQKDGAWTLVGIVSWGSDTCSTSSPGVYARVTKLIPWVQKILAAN
UniProt P40261, sequence (whole entry, looked up): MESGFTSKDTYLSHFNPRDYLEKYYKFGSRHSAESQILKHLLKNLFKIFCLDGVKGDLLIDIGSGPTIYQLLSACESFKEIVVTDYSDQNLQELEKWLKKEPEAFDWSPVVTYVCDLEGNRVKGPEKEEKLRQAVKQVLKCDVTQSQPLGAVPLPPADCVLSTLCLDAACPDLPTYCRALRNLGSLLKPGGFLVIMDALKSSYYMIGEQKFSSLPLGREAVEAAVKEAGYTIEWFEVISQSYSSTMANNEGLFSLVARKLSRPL
UniProt Q99436, sequence (whole entry, looked up): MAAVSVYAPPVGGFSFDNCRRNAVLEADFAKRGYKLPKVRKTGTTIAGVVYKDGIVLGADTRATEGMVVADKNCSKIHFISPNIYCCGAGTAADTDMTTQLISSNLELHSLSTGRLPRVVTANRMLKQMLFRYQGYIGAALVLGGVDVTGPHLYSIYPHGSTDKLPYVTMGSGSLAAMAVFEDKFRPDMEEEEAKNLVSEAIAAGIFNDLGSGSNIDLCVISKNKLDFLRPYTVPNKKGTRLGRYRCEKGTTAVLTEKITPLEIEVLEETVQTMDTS
UniProt P30101, sequence (whole entry, looked up): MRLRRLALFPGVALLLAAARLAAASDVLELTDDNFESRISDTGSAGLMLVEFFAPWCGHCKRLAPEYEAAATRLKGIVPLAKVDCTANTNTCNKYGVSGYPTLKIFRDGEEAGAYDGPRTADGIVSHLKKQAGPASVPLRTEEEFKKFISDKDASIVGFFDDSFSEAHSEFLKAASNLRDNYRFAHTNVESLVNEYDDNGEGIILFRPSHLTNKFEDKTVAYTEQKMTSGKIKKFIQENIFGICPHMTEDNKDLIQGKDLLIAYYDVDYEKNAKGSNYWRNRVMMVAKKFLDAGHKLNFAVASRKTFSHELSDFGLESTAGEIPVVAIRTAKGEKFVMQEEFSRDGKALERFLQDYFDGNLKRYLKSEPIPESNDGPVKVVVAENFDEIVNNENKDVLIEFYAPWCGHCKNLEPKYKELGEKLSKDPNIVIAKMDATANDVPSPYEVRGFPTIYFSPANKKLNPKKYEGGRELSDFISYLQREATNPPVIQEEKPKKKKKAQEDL

C=C(NC(=O)C(=C)NC(=O)c1csc(C2=NC3c4csc(n4)C4NC(=O)c5csc(n5)C(C(C)(O)C(C)O)NC(=O)C5CSC(=N5)C(=CC)NC(=O)C(C(C)O)NC(=O)c5csc(n5)C3(CC2)NC(=O)C(C)NC(=O)C(=C)NC(=O)C(C(C)CC)NC2C=Cc3c(C(C)O)cc(nc3C2O)C(=O)OC4C)n1)C(N)=O (stereo not drawn)
IC50 (Proteasome subunit beta type-7, in 20S proteasome (PSMB7, Homo sapiens, UniProt Q99436); trypsin-like activity, inhibitor; purified human 20S proteasome; 37 °C, 15 min preincubation, with: Boc-Leu-Arg-Arg-AMC): 2.1 ± 0.4 µM

N#Cc1cn([C@@H]2O[C@H](CSCC[C@H](N)C(=O)O)[C@@H](O)[C@H]2O)c2ncnc(N)c12
IC50 (PRMT1 (Homo sapiens, UniProt Q99873); enzyme activity, inhibitor, radiometric): 3 µM

CC(C)C[C@H](NC(=O)[C@H](C)NC(=O)[C@H](CO)NC(=O)[C@H](CC(=O)O)NC(=O)[C@H](CCC(=O)O)NC(=O)[C@@H]1CCCN1C(=O)[C@H](CC(=O)O)NC(=O)[C@H](CCC(=O)O)NC(=O)[C@@H]1CCCN1C(=O)[C@@H](N)C(C)C)C(=O)N[C@@H](CC(C)C)C(=O)N[C@@H](CCC(=O)O)C(=O)O
IC50 (HLA-DRA/HLA-DRB3 (Homo sapiens, UniProt P01903+P79483); binding, competition binding; purified HLA-DR; 48 h, with: radiolabelled probe peptide 0.1-1 nM): > 5 µM

C#CCCC(=O)N[C@H]1CSCc2ccccc2CSCCNC(=O)[C@H](CCC(=O)O)NC(=O)[C@H](CCC(=O)O)NC(=O)[C@H](Cc2ccccc2)NC(=O)[C@@H]2CCCN2C(=O)[C@H](CC(N)=O)NC1=O
IC50 (EH domain-containing protein 1, EH domain (Homo sapiens, UniProt Q9H4M9)): 62.8 ± 0.5 µM

COc1ccc(CNc2nc(N3CCC[C@H]3CO)ncc2C(=O)NNC(=O)c2cnc(N3CCC[C@H]3CO)nc2NCc2ccc(OC)c(Cl)c2)cc1Cl
revertant count (Salmonella typhimurium; TA1535; 250 µg/plate, 48 h): 25 ± 4

CC[N+](CC)(CC)CC
IC50 (Potassium channel protein kcv, L70A in two subunits (A250R, Paramecium bursaria Chlorella virus 1, UniProt Q84568, L70A)): 1300 ± 200 µM

CC[C@H](C)[C@@H]1NC(=O)[C@H]([C@@H](C)O)NC(=O)CNC(=O)[C@H](CCCNC(=N)N)NC(=O)[C@H](CC(C)C)NC(=O)[C@@H]2CSSC[C@H](NC1=O)C(=O)N[C@H](C(=O)N[C@@H](CO)C(=O)NCC(N)=O)CSSC[C@H](NC(=O)[C@H](C)N)C(=O)N[C@@H](C)C(=O)N[C@@H](Cc1c[nH]c3ccccc13)C(=O)N2
IC50 (Chymotrypsinogen B (Homo sapiens, UniProt P17538); enzyme activity, inhibitor, absorbance; pH 7.4): 0.108 µM

COc1ccc(C[C@@H]2NC(=O)[C@H](Cc3ccc(O)cc3)NC(=O)[C@H](CO)NC(=O)[C@H](CC(=O)O)NC(=O)[C@H](Cc3ccc(O)cc3)NC(=O)[C@H](Cc3c[nH]c4ccccc34)NC(=O)[C@@H](Cc3ccc(O)cc3)NC(=O)CSC[C@@H](C(N)=O)NC(=O)[C@H]([C@@H](C)O)NC(=O)[C@H](Cc3ccc(O)cc3)NC(=O)[C@H](CCC(N)=O)NC(=O)[C@H](C)NC(=O)[C@H]([C@@H](C)O)NC(=O)CNC(=O)[C@@H]3CCCN3C(=O)[C@H](Cc3ccc(O)cc3)NC2=O)cc1
AC50 (2,3-bisphosphoglycerate-independent phosphoglycerate mutase (gpmI, Mycoplasma pneumoniae, UniProt P75167); biochemical): 22.4 µM

CC/C=C\C/C=C\C/C=C\C/C=C\C/C=C\C/C=C\CCC(=O)Nc1ccn(C2OC(CO)C(O)C2(F)F)c(=O)n1 (stereo not drawn)
CC50 (LOX IMVI; NCI-60 screen): 77.9 µM

COc1cc(C(=O)NCCOCCOCCOCCNC(=O)c2ccc([18F])nc2)ccc1NC(=O)C1NC(CC(C)(C)C)C(C#N)(c2ccc(Cl)cc2F)C1c1cccc(Cl)c1F (stereo not drawn)
tracer uptake (SJSA-1 tumour model; host not given, spleen; 2 h, tumour-bearing): 0.42 %ID/g

Cc1ccc2nc(C(F)(F)F)c(C(=O)NCc3cccc(Cl)c3)n2c1
IC50 (Cytochrome P450 2C9 (CYP2C9, Homo sapiens, UniProt P11712); inhibitor): 3.1 µM

CCCCCc1cc(O)c2c(c1)OC(C)(C)C1CCC(C)=CC21 (single isomer, unassigned; (-))
IC50 (CYP2C19 (Homo sapiens, UniProt P33261); inhibitor; HEK cell microsomes; 30 min preincubation with NADPH): 2.5 ± 1.8 µM

CN1CCN(CCOc2c(Cl)cc(C(=O)N[C@@H](Cc3ccccc3)C(=O)O)c(O)c2Cl)CC1
IC50 (CPSF3 (Homo sapiens, UniProt Q9UKF6); enzyme activity, inhibitor, fluorescence): 54 µM

[Cl][Au-][P+](c1ccccc1)(c1ccccc1)c1cc[cH-]c1.[Cl][Au-][P+](c1ccccc1)(c1ccccc1)c1cc[cH-]c1.[Cl][Ti+2][Cl]
IC50 (MAPK7 (Homo sapiens, UniProt Q13164); enzyme activity, inhibitor, radiometric): 3.95 µM

CN[C@](C)(C[18F])C(=O)O
tracer uptake (SK-OV-3 tumour model; host not given, heart; 30 min, tumour-bearing): 3.2 %ID/g

COc1cc2c(cc1O)oc(=O)c1c3cc(O)c(O)cc3oc21
IC50 (Genome polyprotein, NS5B polymerase (Hepatitis C virus genotype 1b, UniProt P26663); NS5B RNA polymerase activity, inhibitor; hepatitis C virus, genotype 1b; with: poly(rA)/U12): 18.5 µM

C[C@H](CS)C(=O)Nc1ccccc1-c1nnn(C)n1
IC50 (Metallo-beta-lactamase type 2 (Serratia marcescens, UniProt P52699); inhibitor; 10 min preincubation, with: FC5 substrate): 12.3 µM

NC[C@@H]1O[C@H](O[C@H]2[C@@H](O)[C@H](O[C@@H]3[C@@H](O)[C@H](N)C[C@H](N)[C@H]3O[C@H]3O[C@H](CN)[C@@H](O)[C@H](O)[C@H]3N)O[C@@H]2Cn2cc(COCCCCCCCCCCCCOCc3cn(C[C@H]4O[C@@H](O[C@@H]5[C@@H](O)[C@H](N)C[C@H](N)[C@H]5O[C@H]5O[C@H](CN)[C@@H](O)[C@H](O)[C@H]5N)[C@H](O)[C@@H]4O[C@H]4O[C@@H](CN)[C@@H](O)[C@H](O)[C@H]4N)nn3)nn2)[C@H](N)[C@@H](O)[C@@H]1O
IC50 (HIV-1 TAR RNA; ethidium displacement; pH 6.8): 0.074 µM

NC(=O)C1CN1S(=O)(=O)c1ccc(F)cc1F (stereo not drawn)
IC50 (PDIA3 (Homo sapiens, UniProt P30101); enzyme activity, inhibitor, absorbance; pH 7.6): 25 µM

CSc1nc(N)nc2[nH]cnc12
IC50 (replicase polyprotein 1ab, papain-like protease 2 (Porcine epidemic diarrhea virus, UniProt V5W8W2); enzyme activity, inhibitor): > 200 µM

CN(C)C(=O)[C@@H](NC(=O)c1cnccc1-c1ccc(C(F)(F)F)cc1)c1cc(Cl)cc(C(F)(F)F)c1
IC50 (KLRK1 with ULBP6; ligand binding, inhibitor, TR-FRET; HEK293 expressing NKG2D and DAP10; with: ULBP6-AF647): 0.2 ± 0.1 µM

CCCCn1nnc(-c2ccccc2NC(=O)[C@H](C)CS)n1
IC50 (blaNDM-1 (Klebsiella pneumoniae, UniProt C7C422); enzyme activity, inhibitor, fluorescence; with preincubation): 2.04 µM

CN(C)C(=O)C(NC(=O)c1ccccc1-c1ccc(C(F)(F)F)cc1)c1cccc(C(F)(F)F)c1 (stereo not drawn)
IC50 (KLRK1 with ULBP6): 5 ± 0.9 µM

CCCC[C@H](NC(=O)CNC(=O)CNC(=O)c1ccc(NN)nc1)C(=O)N[C@H]1CC(=O)NCCCC[C@@H](C(N)=O)NC(=O)[C@H](Cc2c[nH]c3ccccc23)NC(=O)[C@H](CCCNC(=N)N)NC(=O)[C@@H](Cc2ccccc2)NC(=O)[C@H](Cc2c[nH]cn2)NC1=O [technetium-99m labelled]
tissue uptake ratio (C57 mouse, B16/F1 melanoma-bearing; intravenous, 0.5 h; reference: tumour over blood): 5.26

CC[C@H](C)[C@@H]1NC(=O)[C@H](CC(C)C)NC(=O)[C@H]([C@@H](C)CC)NC(=O)[C@H](CC(C)C)NC(=O)[C@H](CCCNC(=N)N)NC(=O)[C@H](CCCNC(=N)N)NC(=O)CNC(=O)[C@H](CO)NC(=O)[C@H](CC(C)C)NC(=O)[C@H]([C@@H](C)CC)NC(=O)[C@H]([C@@H](C)CC)NC(=O)[C@H]([C@@H](C)CC)NC(=O)[C@H](CC(C)C)NC(=O)[C@H](CCC(N)=O)NC(=O)[C@H](CCCCN)NC(=O)[C@@H](Cc2ccc(O)cc2)NC(=O)CSC[C@@H](C(=O)NCC(N)=O)NC1=O
IC50 (NNMT (Homo sapiens, UniProt P40261); enzyme activity, inhibitor, mass spectrometry): 0.241 µM

CNC(=O)NCCC[C@@H]1NC(=O)[C@@H](C)NC(=O)C[C@@H](C(=O)O)NC(=O)C[C@@H](C(=O)O)NC(=O)[C@H](Cc2ccccc2)N(C)C1=O
IC50 (Endochitinase B1 (Aspergillus fumigatus, UniProt Q873X9); enzyme activity, inhibitor, fluorometric; 10 min, pH 5.5, 37 °C, with: 20 µM 4-MU-chitobiose): > 1000 µM

COc1ccccc1[C@@H](NS(=O)(=O)c1cc2ccc(O)nc2cc1Cl)C(=O)N(CC(=O)NCCn1cc(COCCCCC(=O)N[C@H](C(=O)N2C[C@H](O)C[C@H]2C(=O)NCc2ccc(-c3scnc3C)cc2)C(C)(C)C)nn1)Cc1cccs1
IC50 (OGT (Homo sapiens, UniProt O15294); enzyme activity, inhibitor, fluorescence): 0.6 µM

OC[C@@H]1[C@@H](O)[C@H](O)[C@@H](O)[C@@H]2N[C@H]12
IC50 (Beta-glucosidase (GBA2, Homo sapiens, UniProt Q9HCG7); enzyme activity, inhibitor; pH 5.8, with preincubation): 0.014 µM

CC(C)C[C@H](NC(=O)[C@@H]1CCCN1)C(=O)N1CCC[C@H]1C(=O)N[C@@H](Cc1c[nH]c2ccccc12)C(=O)O
IC50 (DPP4 (Homo sapiens, UniProt P27487); enzyme activity, inhibitor, absorbance): 442 µM

N=C(N)NCCC[C@@H]1NC(=O)[C@H](CCCCNC(=O)CC[C@H](NC(=O)CCOCCOCCOCCOCCNC(=O)CC[C@H](NC(=O)CN2CCN(CC(=O)O)CCN(CC(=O)O)CCN(CC(=O)O)CC2)C(=O)NCCOCCOCCOCCOCCC(=O)N[C@@H](CCC(=O)NCCCC[C@@H]2NC(=O)[C@@H](Cc3ccccc3)NC(=O)[C@H](CC(=O)O)NC(=O)CNC(=O)[C@H](CCCNC(=N)N)NC2=O)C(=O)NCCCC[C@@H]2NC(=O)[C@@H](Cc3ccccc3)NC(=O)[C@H](CC(=O)O)NC(=O)CNC(=O)[C@H](CCCNC(=N)N)NC2=O)C(=O)NCCCC[C@@H]2NC(=O)[C@@H](Cc3ccccc3)NC(=O)[C@H](CC(=O)O)NC(=O)CNC(=O)[C@H](CCCNC(=N)N)NC2=O)NC(=O)[C@@H](Cc2ccccc2)NC(=O)[C@H](CC(=O)O)NC(=O)CNC1=O [indium-111 labelled]
tumour to tissue ratio (athymic nude mice, female, U-87 MG glioma xenograft, tumour and liver; intravenous, 24 h; reference: tumour over liver): 4.19 ± 1.04

CN(C)CC1CCCCC1(O)c1cccc(O)c1 (stereo not drawn)
Papp B-to-A (human P-glycoprotein; Caco-2 TC7 monolayer; 50 µM, 3 h, apical pH 6.8, basolateral pH 7.4, with: cyclosporine A 10 µM): 16.1 ± 0.7 ×10⁻⁶ cm/s

N=C(N)NCCC[C@@H]1NC(=O)[C@H](CCCCNC(=O)CCOCCOCCOCCOCCNC(=O)CN2CCN(CC(=O)O)CCN(CC(=O)O)CCN(CC(=O)O)CC2)NC(=O)[C@@H](Cc2ccccc2)NC(=O)[C@H](CC(=O)O)NC(=O)CNC1=O [indium-111 labelled]
tissue uptake (female athymic nude mice, kidney; intravenous, 3 µCi, 72 h, U-87 MG glioma xenograft): 1.07 ± 0.11 %ID/g

CCOc1ccc2nc3cc(N)ccc3c(N)c2c1
IC50 (CES1 (Homo sapiens, UniProt P23141); enzyme activity, inhibitor, absorbance): 99.3 µM
